Assay results gathered from unrelated publications.
Parts stem from different laboratories: compare values within a part only. Substitutions count along the parent as printed.

Sample 1 — method: protein binding microarray; molecule type: double-stranded DNA, one strand shown; medium: in vitro; concentration: not given; reference: not given; direction: higher = stronger binding; quantity: E-score
Target: Histone acetyltransferase KAT6A, both winged helices, GST fusion (KAT6A, Homo sapiens, UniProt Q92794, residues 1-181)
Notes: 8-mer, flanks averaged, mean of 2 arrays, mostly near background
Target sequence (chain): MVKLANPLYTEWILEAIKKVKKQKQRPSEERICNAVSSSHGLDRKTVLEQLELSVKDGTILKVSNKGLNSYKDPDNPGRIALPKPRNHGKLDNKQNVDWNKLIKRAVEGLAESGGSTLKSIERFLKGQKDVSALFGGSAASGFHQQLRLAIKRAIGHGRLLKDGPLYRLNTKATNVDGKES
AGCTGCCA: -0.094
GCCACGAC: -0.058
ACTATTTC: -0.0232
AACCTGAT: -0.165
CTTATTGA: -0.2
ACGTGGGG: -0.284
GCGGCTGA: 0.243
GGCGGGTA: 0.199
ACAATCTC: 0.026
CGAGAGTA: -0.0112
GAAATTTC: -0.204
AATCGAGG: -0.197
CTAGTTCC: -0.014
TCTAGTAA: 0.103
CCGATCGA: 0.0882
CCGCCCAA: 0.0369
GCCAGCAC: -0.0606
CACCTTCG: -0.00966
AGGAGAGG: -0.232

Sample 2 — target: CCNB1, cyclin fold, Cln2 fusion (human); method: yeast growth competition, sequencing; medium: yeast; notes: weak parent motif; reference: not given; direction: higher = stronger binding; quantity: normalised enrichment score
Parent: NPAT docking peptide (human); PCHRRVLCFDSTT
F9A: 0.23
R5K F9L: 0.46
L7A: 0.608
R5K: 0.347
R4A: 0.545
S11A: 0.178
H3A: 0.521
P1A: 0.294
T12A: 0.565
R5A L7A: 0.436

Sample 3 — method: DHFR PCA, deep sequencing; medium: yeast; with: (+)-ABA 0 µM; reference: wild-type fitted maximum; direction: higher = stronger binding; quantity: relative binding score
Target: ABI1, truncated, D143A, DHFR fusion (Arabidopsis thaliana)
Notes: methotrexate growth selection, single substitutions
Parent: PYL1, truncated, DHFR fusion (Arabidopsis thaliana); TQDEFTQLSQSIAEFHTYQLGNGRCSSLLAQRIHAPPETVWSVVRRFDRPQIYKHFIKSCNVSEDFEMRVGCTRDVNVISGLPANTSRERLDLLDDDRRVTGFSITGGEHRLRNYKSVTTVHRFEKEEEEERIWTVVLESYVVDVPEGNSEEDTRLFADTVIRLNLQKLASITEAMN; partner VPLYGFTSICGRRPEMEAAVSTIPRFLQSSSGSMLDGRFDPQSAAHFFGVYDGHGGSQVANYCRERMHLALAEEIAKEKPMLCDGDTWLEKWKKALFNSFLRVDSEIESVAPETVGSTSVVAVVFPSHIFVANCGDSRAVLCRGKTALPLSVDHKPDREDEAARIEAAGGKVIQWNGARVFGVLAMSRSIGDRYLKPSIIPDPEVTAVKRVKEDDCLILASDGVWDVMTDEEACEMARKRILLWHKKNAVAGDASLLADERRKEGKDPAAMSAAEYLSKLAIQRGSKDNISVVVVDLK
H55S: 4.5%
P50S: 0.0139%
A175F: -8.26%
V70S: 4.25%
S9R: 51.9%
R46H: 1.23%
E109S: 2.63%
L8A: 1.98%
T6H: 39.8%
R24P: -5.71%
V76Y: -0.427%
T160Y: 16.7%
D92S: -0.505%
S150G: 1.42%
Q10S: 37.5%
E152L: 1.77%
R113P: 69.4%
L91W: -1.06%
I52F: 8.5%
Y53W: 47.8%
T106G: 1.24%
E131M: 35.4%
E128Y: 11.1%
Y115V: 4.7%
R155T: 5.97%

Sample 4 — method: aptamer microarray, sandwich; molecule type: DNA with 2'F-ANA; medium: in vitro; concentration: 200 nM; with: Cy3 exosite-II aptamer, 400 nM; direction: higher = stronger binding; quantity: mean fluorescence intensity; oligonucleotide: GGTTGGTGTGGTTGG
Target: Prothrombin, mature alpha-thrombin (F2, Homo sapiens, UniProt P00734)
Notes: whole 15-mer aptamer, many near background
2'F-ANA at 1 2 3 6 10 11 12 13: 78.8 a.u.
2'F-ANA at 6 7 8 9 11 12 14 15: 198 a.u.
2'F-ANA at 3 4 5 8 9 14: 61.4 a.u.
2'F-ANA at 1 4 5 6 9 14 15: 44.8 a.u.
2'F-ANA at 1 2 3 4 7 8 9 11 13 15: 127 a.u.
2'F-ANA at 2 3 5 6 7 8 11 13: 84.5 a.u.
2'F-ANA at 5 7 9 10 11 12 15: 76 a.u.
2'F-ANA at 6 7 8 9 11 12 15: 602 a.u.
2'F-ANA at 1 6 7 9 11 13 14 15: 54.7 a.u.
2'F-ANA at 1 2 3 5 6 7 9 12 13 14 15: 49.1 a.u.
2'F-ANA at 1 2 3 9 10 12 15: 103 a.u.
2'F-ANA at 4 5 11 13: 70.1 a.u.
2'F-ANA at 2 3 6 8 10 11 13 14: 225 a.u.
2'F-ANA at 1 2 6 7 8 9 11 14: 57.5 a.u.
2'F-ANA at 2 5 6 8 12 13 14: 46.1 a.u.
2'F-ANA at 1 2 3 5 10 11 12 13: 58.3 a.u.
2'F-ANA at 3 4 7 8 10 11: 312 a.u.

Sample 5 — target: ATF5, bZIP domain (human); method: DHFR protein complementation; medium: yeast; reference: wild-type JUN-FOS pair; direction: higher = stronger binding; quantity: binding fitness
Notes: single substitutions, most at no-binding floor
Parent: JUN, bZIP domain (human); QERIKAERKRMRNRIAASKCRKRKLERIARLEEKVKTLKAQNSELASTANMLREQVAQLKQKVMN; partner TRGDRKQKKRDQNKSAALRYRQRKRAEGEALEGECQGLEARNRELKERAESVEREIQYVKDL
E32P: -1.52 natural log
A46F: -1.58 natural log
R53W: -1.47 natural log
V56T: -1.57 natural log
E54L: -1.32 natural log
A40E: -1.57 natural log
V56W: -1.41 natural log
L31V: -1.49 natural log
L38W: -1.53 natural log
M51A: -1.49 natural log
S47Q: -1.49 natural log
Q55R: -1.33 natural log
V56F: -1.44 natural log
T37E: -1.33 natural log
R30K: -1.38 natural log
K34S: -1.55 natural log
K36M: -1.43 natural log
L45C: -1.49 natural log
E54V: -1.41 natural log
A40H: -1.37 natural log
E33Q: -1.6 natural log
E44P: -1.57 natural log
L31T: -1.5 natural log
E32S: -1.49 natural log
E54K: -0.989 natural log

Sample 6 — method: protein-binding microarray; molecule type: double-stranded DNA, one strand shown; medium: in vitro; concentration: 250 nM; notes: 60-bp whole probe; with: salmon DNA 0.4 mg/ml; reference: random background probes; direction: higher = stronger binding; quantity: log fluorescence; all sequences stand within: GCCTAGCAC … GTCTTGATTCGCTTGACGCTGCTG
Target: Interferon regulatory factor 7, full length, phosphomimetic (IRF7, Homo sapiens, UniProt Q92985, residues 1-503, S101K/S471D/S472D/S475D/S476D/S477D/S483D/S484D/S487D)
Chain of UniProt Q92985 (whole entry, unmodified, looked up): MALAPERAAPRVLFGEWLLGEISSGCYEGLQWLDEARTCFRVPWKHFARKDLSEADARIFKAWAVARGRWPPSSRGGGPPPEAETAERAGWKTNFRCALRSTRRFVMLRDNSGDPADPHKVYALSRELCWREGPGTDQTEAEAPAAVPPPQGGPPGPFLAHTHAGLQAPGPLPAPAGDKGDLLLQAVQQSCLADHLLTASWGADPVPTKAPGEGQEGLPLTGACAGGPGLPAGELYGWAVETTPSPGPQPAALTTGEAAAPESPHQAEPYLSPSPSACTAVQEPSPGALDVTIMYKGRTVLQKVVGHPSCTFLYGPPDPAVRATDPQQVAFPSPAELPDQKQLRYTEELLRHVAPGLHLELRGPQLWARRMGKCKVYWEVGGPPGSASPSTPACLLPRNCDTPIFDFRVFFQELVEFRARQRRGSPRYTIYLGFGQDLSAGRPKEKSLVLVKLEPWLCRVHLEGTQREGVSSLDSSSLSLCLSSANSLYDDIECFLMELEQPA
TTAGGTCTCCTTATCCTGTAGTGCTAG: 0.381 z-score
GACGGGATCGGGACTGGGGACGTGCTA: -0.502 z-score
TTAGATCTCAGACTTGATTAGTGCTAG: 0.109 z-score
GAACCTTGGCCTCTAGGTTTGTGCTAG: 0.142 z-score
TCAGTTACGGAATTTCCCACTGTGCTA: 1.17 z-score
AATATGTTCCCTATATAAGGGTGCTAG: 1.82 z-score
TTAGGAGTGGGACTGGGTTAGTGCTAG: -0.493 z-score
GTGGGAAACCGGAAAGGCAAAGTGCTA: -0.185 z-score
GGATGACTCCCTCTCTGGCCGTGCTAG: -0.423 z-score
GACGATTTCGGGTATCGACACGTGCTA: 0.608 z-score
TTAGGTTTCAACTATCGGTTAGTGCTA: 0.672 z-score
TTAGAACTGGGGAATGGATTAGTGCTA: -0.359 z-score
GAGGGACTGCTACTGCTGACGTGCTAG: -1.03 z-score
GCCGGTTTCGGGTTTCGGGACGTGCTA: 11.7 z-score
GACGGTTTCGGGACTGGGGGCGTGCTA: 5.3 z-score
GACGGTTTCCTCTTCCTGACGTGCTAG: 2.69 z-score
TTAAGTCTCGGTCTCGGTTAGTGCTAG: 2.94 z-score
TTAGAAATCAGACTGGATTAGTGCTAG: -0.192 z-score
